Published values gathered from unrelated publications.
UCHL1: Ubiquitin carboxyl-terminal hydrolase isozyme L1 (UCHL1, Homo sapiens, UniProt P09936)
Chain of UniProt P09936 (whole entry, looked up): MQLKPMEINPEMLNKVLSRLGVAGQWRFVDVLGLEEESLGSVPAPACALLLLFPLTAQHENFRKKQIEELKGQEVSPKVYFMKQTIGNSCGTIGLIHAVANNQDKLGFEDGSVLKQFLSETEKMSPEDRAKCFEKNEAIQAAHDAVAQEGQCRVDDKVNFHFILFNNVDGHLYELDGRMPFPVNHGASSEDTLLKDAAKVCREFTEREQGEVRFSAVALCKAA
Chain of UniProt Q8IYT8 (whole entry, looked up): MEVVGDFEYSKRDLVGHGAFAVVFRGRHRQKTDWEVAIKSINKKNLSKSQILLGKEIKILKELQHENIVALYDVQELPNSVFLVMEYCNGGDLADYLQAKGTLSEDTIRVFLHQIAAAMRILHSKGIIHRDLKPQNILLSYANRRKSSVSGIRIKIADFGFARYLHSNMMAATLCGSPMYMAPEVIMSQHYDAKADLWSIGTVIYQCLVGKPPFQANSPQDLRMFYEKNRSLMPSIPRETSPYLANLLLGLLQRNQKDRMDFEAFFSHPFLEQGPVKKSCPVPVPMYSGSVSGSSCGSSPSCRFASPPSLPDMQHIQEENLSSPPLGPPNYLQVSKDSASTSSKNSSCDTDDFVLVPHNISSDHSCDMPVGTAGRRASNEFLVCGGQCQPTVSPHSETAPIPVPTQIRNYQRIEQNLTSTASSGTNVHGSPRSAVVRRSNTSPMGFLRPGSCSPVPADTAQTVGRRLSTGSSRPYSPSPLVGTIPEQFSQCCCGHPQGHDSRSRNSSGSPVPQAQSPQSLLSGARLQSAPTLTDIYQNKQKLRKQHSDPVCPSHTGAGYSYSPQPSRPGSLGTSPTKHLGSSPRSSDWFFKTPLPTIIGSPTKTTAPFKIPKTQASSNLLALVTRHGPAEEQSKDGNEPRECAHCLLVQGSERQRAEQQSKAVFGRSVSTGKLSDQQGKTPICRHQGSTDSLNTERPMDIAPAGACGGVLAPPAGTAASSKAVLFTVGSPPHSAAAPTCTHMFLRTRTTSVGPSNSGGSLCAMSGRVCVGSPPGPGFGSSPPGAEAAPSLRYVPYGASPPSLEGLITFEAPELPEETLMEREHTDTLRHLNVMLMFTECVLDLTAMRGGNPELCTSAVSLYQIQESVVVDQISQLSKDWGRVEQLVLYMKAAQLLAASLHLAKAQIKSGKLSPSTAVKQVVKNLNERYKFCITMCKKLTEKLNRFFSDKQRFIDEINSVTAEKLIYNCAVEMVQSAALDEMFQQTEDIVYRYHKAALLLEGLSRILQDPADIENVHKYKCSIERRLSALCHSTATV
Chain of UniProt O95835 (whole entry, looked up): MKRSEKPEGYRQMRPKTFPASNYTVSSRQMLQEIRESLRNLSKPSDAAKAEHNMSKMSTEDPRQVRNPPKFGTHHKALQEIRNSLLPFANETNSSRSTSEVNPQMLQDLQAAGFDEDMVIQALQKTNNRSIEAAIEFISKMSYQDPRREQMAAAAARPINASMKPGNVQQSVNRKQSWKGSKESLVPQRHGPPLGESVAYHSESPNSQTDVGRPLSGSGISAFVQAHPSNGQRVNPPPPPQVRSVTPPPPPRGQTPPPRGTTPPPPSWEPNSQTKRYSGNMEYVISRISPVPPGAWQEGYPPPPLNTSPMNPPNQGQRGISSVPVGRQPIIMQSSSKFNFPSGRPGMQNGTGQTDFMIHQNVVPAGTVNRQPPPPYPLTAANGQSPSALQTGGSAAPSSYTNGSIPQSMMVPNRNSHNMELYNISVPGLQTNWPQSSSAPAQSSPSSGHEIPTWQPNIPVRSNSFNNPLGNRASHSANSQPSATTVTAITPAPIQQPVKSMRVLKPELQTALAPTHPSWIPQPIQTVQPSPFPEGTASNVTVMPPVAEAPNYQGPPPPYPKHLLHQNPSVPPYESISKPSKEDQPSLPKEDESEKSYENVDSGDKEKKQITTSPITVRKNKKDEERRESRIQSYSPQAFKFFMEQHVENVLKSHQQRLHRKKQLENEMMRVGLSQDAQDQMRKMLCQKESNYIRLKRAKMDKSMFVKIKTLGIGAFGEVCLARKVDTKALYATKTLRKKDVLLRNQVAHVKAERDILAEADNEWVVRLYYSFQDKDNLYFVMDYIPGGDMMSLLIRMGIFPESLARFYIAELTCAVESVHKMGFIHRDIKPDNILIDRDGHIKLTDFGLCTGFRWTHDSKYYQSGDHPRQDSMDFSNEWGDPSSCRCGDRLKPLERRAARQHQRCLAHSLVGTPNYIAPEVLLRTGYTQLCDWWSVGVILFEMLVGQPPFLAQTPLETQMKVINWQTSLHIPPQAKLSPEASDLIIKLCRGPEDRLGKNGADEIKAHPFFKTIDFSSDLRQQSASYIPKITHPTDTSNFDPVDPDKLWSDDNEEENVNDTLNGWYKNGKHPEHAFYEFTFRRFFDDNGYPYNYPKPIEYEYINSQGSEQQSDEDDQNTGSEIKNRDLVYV
Chain of UniProt P09619 (whole entry, looked up): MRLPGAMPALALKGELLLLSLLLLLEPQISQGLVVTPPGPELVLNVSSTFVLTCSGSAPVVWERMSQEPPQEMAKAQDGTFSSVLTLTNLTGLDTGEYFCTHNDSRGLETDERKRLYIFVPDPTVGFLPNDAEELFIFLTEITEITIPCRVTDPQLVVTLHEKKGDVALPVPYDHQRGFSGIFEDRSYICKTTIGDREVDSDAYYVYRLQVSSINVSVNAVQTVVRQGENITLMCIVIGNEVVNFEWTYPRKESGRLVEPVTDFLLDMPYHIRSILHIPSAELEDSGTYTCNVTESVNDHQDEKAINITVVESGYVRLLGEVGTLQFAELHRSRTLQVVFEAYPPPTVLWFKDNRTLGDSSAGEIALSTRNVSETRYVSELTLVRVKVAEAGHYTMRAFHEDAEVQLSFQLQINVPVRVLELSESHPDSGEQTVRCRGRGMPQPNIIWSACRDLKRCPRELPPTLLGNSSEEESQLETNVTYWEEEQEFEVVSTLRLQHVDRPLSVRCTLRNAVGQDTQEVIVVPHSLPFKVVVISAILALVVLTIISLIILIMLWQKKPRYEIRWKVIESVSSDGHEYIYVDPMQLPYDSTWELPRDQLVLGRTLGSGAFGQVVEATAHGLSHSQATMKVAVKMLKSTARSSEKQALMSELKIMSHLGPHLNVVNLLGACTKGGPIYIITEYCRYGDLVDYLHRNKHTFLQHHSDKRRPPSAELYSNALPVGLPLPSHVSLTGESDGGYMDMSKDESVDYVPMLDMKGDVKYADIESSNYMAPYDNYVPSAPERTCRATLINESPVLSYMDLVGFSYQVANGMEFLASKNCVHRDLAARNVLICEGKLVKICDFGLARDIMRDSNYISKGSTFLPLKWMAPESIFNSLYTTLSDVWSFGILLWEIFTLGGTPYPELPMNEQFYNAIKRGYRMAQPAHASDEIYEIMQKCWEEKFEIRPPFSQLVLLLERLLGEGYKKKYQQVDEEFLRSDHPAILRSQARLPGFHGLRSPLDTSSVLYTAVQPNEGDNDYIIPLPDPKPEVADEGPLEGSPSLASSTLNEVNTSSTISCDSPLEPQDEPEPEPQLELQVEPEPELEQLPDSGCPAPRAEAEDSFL
Chain of UniProt Q92626 (whole entry, looked up): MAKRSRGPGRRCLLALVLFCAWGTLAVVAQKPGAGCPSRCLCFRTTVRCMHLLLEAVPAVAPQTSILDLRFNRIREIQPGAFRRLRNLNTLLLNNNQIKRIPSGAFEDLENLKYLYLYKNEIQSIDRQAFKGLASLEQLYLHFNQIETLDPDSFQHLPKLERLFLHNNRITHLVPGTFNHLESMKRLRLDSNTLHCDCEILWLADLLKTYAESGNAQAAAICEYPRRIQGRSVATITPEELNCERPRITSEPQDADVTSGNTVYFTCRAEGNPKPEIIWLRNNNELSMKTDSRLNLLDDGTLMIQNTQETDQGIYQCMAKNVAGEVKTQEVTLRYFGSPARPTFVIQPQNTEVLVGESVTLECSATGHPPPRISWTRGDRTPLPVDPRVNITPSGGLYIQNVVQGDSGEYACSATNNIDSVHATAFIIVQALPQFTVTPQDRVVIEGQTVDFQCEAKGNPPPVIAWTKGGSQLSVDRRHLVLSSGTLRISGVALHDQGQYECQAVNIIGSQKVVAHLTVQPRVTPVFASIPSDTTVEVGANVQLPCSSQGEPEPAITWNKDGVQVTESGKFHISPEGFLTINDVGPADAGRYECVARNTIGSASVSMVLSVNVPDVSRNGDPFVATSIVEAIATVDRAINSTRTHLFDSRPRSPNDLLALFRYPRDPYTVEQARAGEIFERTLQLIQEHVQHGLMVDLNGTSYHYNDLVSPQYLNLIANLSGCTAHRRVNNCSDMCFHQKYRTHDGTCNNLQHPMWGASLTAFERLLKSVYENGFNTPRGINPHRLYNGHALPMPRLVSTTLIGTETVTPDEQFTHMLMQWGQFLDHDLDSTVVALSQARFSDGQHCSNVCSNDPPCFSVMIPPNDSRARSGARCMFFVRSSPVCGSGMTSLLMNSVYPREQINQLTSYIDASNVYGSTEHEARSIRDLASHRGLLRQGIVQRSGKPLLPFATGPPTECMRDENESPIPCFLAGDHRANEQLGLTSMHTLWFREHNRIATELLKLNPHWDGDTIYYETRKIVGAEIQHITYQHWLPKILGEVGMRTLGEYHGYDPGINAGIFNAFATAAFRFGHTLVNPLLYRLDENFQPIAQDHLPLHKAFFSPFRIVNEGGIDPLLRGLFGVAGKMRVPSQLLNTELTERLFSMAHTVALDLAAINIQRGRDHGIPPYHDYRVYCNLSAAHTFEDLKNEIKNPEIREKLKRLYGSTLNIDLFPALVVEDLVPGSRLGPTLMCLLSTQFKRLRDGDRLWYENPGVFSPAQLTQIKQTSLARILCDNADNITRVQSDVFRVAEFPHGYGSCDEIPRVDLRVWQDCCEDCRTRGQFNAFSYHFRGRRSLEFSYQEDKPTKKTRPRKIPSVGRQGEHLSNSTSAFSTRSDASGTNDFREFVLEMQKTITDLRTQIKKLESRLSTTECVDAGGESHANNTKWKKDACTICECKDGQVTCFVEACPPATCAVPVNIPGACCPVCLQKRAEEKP

The remaining activity of `COc1cc(Nc2ncc3c(n2)-c2ccc(Cl)cc2C(c2c(F)cccc2OC)=NC3)ccc1C(=O)O` is reported as 99% (PRKD2; kinase activity; 1 µM).
`Cc1cc(NC(=O)C23CC4CC(C2)CC(n2cnc([N+](=O)[O-])n2)(C4)C3)no1` has an inhibition of -6.8% (Trypanosoma cruzi; reporter translation, Renilla luciferase mRNA translation; cell-free extract; 40 µM; baseline: DMSO).
For `O=C(O)c1ccc(Nc2ncc3c(n2)-c2ccc(Cl)cc2C(c2c(F)cccc2F)=NC3)cc1`, the remaining activity was 66% (human SIK(h); kinase activity; 1 µM).
For `CC1(c2ccccc2)CC(C)(C)N(C(=O)c2cc([N+](=O)[O-])cc([N+](=O)[O-])c2)c2ccccc21` (stereo not shown), the inhibition was -10.4% (Trypanosoma cruzi; reporter translation, Renilla luciferase mRNA translation; cell-free extract; 40 µM; baseline: DMSO).
`NC/C(=C\F)COc1cccc(Cn2c(=S)[nH]c(=O)c3[nH]cnc32)c1` has a remaining activity of 17.4% (Peroxidasin homolog (PXDN, Homo sapiens, UniProt Q92626); Amplex UltraRed; 30 µM; baseline: control).
The remaining activity of `C=CC(=O)N1CCC[C@@H](n2nc(-c3ccc(Oc4ccccc4)cc3)c3c(N)ncnc32)C1` is reported as 109% (Platelet-derived growth factor receptor beta (PDGFRB, Homo sapiens, UniProt P09619); 1 µM).
`O=S(=O)(NCC(O)c1c(F)cccc1Cl)c1cccc(Cl)c1O` (stereo not shown) gave a remaining activity of 86% (malate dehydrogenase; enzyme activity, inhibitor; 200 µM, pH 7.0, 1% DMSO, aggregation counter-screen).
`COc1cc(F)ccc1-c1ncnc(Nc2cccc(C[S@](C)(=N)=O)c2)n1` gave a remaining activity of 100% (Serine/threonine-protein kinase tousled-like 2 (TLK2, Homo sapiens, UniProt Q86UE8); kinase activity; 10 µM, together with: 10 µM ATP).
For `O=C(NC1CCC1)c1ccc2nc(-c3cccc(NS(=O)(=O)NCCN4CCCCC4)c3)cn2c1`, the remaining activity was 100% (Serine/threonine-protein kinase LATS1 (LATS1, Homo sapiens, UniProt O95835); enzyme activity; 10 µM).
With `COc1cc(C=C(C#N)C(=O)Nc2c(C)cc(C)cc2C)cc(OC)c1` the labelling was 35.9% (UCHL1; covalent, intact protein LC-MS; 12.5 µM).
The remaining activity of `CON(C)C(=O)[C@H](CCSC)NS(=O)(=O)c1cccc(Cl)c1O` is reported as 84% (malate dehydrogenase; enzyme activity, inhibitor; 200 µM, pH 7.0, 1% DMSO, aggregation counter-screen).
The remaining activity of `COc1cc(-c2cncc3c2CN(C)Cc2cc(N4CCNCC4)ccc2-3)cc(OC)c1OC` is reported as 104% (Serine/threonine-protein kinase 32A (STK32A, Homo sapiens, UniProt Q8WU08); kinase activity; 1 µM, human enzyme, together with: ATP 10 µM; baseline: DMSO control).
For `O=C1CCCN1c1ccc(Cl)c(NS(=O)(=O)c2cccc(Cl)c2O)c1`, the remaining activity was 92% (malate dehydrogenase; enzyme activity, inhibitor; 200 µM, pH 7.0, 1% DMSO, aggregation counter-screen).
The remaining activity of `Cc1cc(Nc2cc(N3CCN(C)CC3)nc(Sc3ccc(NC(=O)C4CC4)cc3)n2)[nH]n1` is reported as 101% (Serine/threonine-protein kinase ULK2 (ULK2, Homo sapiens, UniProt Q8IYT8); kinase activity, KinaseProfiler; 0.03 µM, species human; baseline: control).
The remaining activity of `O=S(=O)(NCc1cnc(-n2cccn2)s1)c1cccc(Cl)c1O` is reported as 120% (malate dehydrogenase; enzyme activity, inhibitor; 200 µM, pH 7.0, 1% DMSO, aggregation counter-screen).
With `COc1ccc(N(C(=O)CCl)C2C=CS(=O)(=O)C2)cc1` (stereo not shown) the labelling was 14.6% (UCHL1; covalent, intact protein LC-MS; 12.5 µM).

Excerpt of the above:
For `CC1(c2ccccc2)CC(C)(C)N(C(=O)c2cc([N+](=O)[O-])cc([N+](=O)[O-])c2)c2ccccc21` (stereo not shown), the inhibition was -10.4% (Trypanosoma cruzi; reporter translation, Renilla luciferase mRNA translation; cell-free extract; 40 µM; baseline: DMSO).
